Assay results gathered from unrelated publications.
Every numbered part comes from another study and shows a few of its results, in no order. Substitutions count along the parent as printed.

Study 1
Target: Histone acetyltransferase KAT6A, both winged helices, GST fusion (KAT6A, Homo sapiens, UniProt Q92794, residues 1-181)
Technique: protein binding microarray
Form: double-stranded DNA, one strand shown
Medium: in vitro
Tested at: not given
Setting: 8-mer, flanks averaged, mean of 2 arrays, mostly near background
Relative to: not given
Reading: higher = stronger binding
Target sequence (chain): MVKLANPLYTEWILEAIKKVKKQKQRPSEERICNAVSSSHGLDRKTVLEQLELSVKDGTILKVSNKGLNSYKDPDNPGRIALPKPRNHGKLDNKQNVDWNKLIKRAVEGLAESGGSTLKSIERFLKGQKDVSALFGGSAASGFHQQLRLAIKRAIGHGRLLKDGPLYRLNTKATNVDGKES
| Strand | E-score |
| --- | --- |
| CGTTTGCC | 0.0908 |
| ATTGTGAG | -0.133 |
| AGTTGCGG | 0.072 |
| TCGCTTAA | 0.12 |
| GTACCACA | -0.0685 |
| CTCCGCTC | 0.0387 |

Study 2
Target: RNA binding protein fox-1 homolog 2, RRM domain, GST-SBP tag (RBFOX2, Homo sapiens, UniProt O43251-10, residues 100-194)
Technique: RNA Bind-n-Seq
Form: RNA
Medium: in vitro
Tested at: 365 nM
Setting: natural RNA segment, single round, ends assumed
Relative to: no-protein control
Reading: higher = stronger binding
All sequences stand within: GGGAGUUCUACAGUCCGACGAUC … UGGAAUUCUCGGGUGCCAA
Residues (chain): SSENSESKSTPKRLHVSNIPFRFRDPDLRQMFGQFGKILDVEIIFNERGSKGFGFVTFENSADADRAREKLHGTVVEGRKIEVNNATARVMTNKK
| Strand | RBNS enrichment (R) |
| --- | --- |
| UCAUGGUGUAAAAAACACACACAUACACAAAUAUUUGUAACAUAUUGUGACCAAAUGGGCCUCAAAGAUUCAGAUUGAAACAAACAAAAAGCUUUUGAUGGAAAAUAUGU | 0.642 |
| UCCUACCCAUACUUCCUUCUCUGAGACUAUUCCAUGGGACCCACUUCCCUCUGGGUUCUCCUUUCCCCAGACAGCUGUAGGGGCACAUGGUAGGGAAGCAGCAUAGGCCC | 0.301 |
| AAAAGGGCUGGCUGCUCUGACAUGGUGGGGCGUCUCCUGGGGCCUGGCUCGCUCUGGACCCUGCUCUCCCCAGCCACGUUCUGUAGUCUGUUGUACAUCUCAGGAACCCU | 0.169 |
| CCGAGUCACACCCGGUGGCUCUGGUAUGAAUUCACCCGAAGCGCUUCUGCACCAACUCACCUGGCCGCUAAGUUGCUGAUGGGUAGUACCUGUACUAAACCACCUCAGAA | 0.233 |
| UAGGACUUUUCUAACAUAUGUCUAUAAUAUAGUGUUUAGGUUCUUUUUUUUUUCAGGAAUACAUUUGGAAAUUCAAAACAAUUGGCAAACUUUGUAUUAAUGUGUUAAGU | 0.432 |

Study 3
Target: CCNB1, cyclin fold, Cln2 fusion (human)
Technique: yeast growth competition, sequencing
Medium: yeast
Setting: weak parent motif
Relative to: not given
Reading: higher = stronger binding
Starting sequence: CDC6 docking peptide (human); TLKGRRLVFDNQL
| Substitution | normalised enrichment score |
| --- | --- |
| TLKTRRLVFDNQL [G4T] | 0.491 |
| TLKPRRLVFDNQL [G4P] | 0.389 |
| TLKGRRYVFDNQL [L7Y] | 1.63 |
| TLKGRCLVFDNQL [R6C] | 0.368 |
| TLKGRRLVFRNQL [D10R] | 1.13 |
| TLKGRRLVFDNFL [Q12F] | 0.00864 |
| TLKGRRLVLDNQL [F9L] | 0.425 |

Mixed results
| Molecule | target | assay | system | conditions | how to read | endpoint | value |
| --- | --- | --- | --- | --- | --- | --- | --- |
| PhoQ, residues 284 288 289 292 302 303 AEGLLW | PhoP, residues 12 14 15 18 19 GQAIL (Escherichia coli, UniProt P23836) | Sort-seq, refers to: YFP reporter | E. coli | PhoQ-PhoP variant library, with: 10 µM Mg2+ | relative to: high Mg2+ state, higher = stronger signaling | fold induction | 6.37 |
